Experimental data pooled from the literature.
Compare with care: the assays were run in different laboratories. ± marks the error that the study gave.
KCNH2: Voltage-gated inwardly rectifying potassium channel KCNH2 (KCNH2, Homo sapiens, UniProt Q12809)
CYP2B6: Cytochrome P450 2B6 (CYP2B6, Homo sapiens, UniProt P20813)
Sequence of UniProt P20813 (whole entry, looked up): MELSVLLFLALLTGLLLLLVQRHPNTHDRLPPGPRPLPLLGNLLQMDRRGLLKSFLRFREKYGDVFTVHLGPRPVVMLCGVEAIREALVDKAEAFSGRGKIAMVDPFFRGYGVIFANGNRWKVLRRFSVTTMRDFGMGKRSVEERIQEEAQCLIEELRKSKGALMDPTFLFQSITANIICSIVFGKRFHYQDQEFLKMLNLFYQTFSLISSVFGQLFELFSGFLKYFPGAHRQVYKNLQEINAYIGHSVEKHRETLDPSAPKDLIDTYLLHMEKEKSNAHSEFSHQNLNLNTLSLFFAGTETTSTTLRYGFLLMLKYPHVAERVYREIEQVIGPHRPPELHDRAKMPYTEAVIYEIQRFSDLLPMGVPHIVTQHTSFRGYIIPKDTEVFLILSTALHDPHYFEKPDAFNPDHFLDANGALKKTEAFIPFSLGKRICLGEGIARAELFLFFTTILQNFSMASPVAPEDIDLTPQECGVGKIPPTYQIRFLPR
CYP2D6: Cytochrome P450 2D6 (CYP2D6, Homo sapiens, UniProt P10635)
Sequence of UniProt P10635 (whole entry, looked up): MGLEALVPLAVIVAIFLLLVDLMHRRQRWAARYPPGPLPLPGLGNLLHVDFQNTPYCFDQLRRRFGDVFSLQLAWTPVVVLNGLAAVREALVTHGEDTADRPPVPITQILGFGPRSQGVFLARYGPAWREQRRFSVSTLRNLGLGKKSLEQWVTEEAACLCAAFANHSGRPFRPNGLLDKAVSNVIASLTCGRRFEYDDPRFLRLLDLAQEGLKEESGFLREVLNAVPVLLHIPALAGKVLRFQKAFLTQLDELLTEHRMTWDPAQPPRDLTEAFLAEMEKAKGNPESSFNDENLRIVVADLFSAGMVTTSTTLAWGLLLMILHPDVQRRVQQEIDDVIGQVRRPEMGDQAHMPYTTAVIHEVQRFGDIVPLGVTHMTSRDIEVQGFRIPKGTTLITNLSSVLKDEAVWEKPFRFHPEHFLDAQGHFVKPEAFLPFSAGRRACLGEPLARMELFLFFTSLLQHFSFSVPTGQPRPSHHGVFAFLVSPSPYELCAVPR
SLCO1B1: Solute carrier organic anion transporter family member 1B1 (SLCO1B1, Homo sapiens, UniProt Q9Y6L6)
Sequence of UniProt Q9Y6L6 (whole entry, looked up): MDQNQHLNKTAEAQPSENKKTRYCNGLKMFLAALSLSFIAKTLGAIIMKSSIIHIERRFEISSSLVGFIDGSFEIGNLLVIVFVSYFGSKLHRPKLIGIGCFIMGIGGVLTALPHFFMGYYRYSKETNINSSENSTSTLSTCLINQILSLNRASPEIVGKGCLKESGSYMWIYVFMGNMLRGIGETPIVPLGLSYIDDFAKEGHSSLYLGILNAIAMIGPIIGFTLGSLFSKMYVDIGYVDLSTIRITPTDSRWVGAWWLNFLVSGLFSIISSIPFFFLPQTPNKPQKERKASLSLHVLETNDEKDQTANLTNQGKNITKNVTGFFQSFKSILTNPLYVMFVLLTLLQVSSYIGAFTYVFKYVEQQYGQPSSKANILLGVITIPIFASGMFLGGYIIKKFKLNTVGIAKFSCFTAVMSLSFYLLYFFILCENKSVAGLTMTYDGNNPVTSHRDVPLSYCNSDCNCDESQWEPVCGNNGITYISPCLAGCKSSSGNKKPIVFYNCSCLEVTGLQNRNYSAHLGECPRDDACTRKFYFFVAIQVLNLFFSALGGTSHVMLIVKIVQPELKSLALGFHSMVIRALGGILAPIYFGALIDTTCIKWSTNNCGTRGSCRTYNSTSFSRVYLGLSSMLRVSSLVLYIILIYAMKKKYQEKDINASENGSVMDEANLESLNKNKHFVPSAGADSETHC
Sequence of UniProt P00729 (whole entry, looked up): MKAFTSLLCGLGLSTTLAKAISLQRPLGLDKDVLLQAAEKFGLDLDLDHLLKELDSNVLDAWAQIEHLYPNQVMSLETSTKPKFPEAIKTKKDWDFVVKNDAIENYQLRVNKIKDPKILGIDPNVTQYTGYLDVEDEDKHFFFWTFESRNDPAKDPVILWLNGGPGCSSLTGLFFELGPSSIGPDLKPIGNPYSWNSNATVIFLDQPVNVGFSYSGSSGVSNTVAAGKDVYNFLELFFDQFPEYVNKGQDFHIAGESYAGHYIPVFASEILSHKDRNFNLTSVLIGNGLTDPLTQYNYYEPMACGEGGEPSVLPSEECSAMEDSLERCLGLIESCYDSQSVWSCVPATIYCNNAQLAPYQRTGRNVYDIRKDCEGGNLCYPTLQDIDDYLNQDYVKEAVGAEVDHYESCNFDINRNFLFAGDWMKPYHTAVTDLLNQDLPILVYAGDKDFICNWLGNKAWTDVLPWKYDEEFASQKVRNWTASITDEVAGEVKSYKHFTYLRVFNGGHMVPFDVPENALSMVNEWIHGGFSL
Sequence of UniProt P08684 (whole entry, looked up): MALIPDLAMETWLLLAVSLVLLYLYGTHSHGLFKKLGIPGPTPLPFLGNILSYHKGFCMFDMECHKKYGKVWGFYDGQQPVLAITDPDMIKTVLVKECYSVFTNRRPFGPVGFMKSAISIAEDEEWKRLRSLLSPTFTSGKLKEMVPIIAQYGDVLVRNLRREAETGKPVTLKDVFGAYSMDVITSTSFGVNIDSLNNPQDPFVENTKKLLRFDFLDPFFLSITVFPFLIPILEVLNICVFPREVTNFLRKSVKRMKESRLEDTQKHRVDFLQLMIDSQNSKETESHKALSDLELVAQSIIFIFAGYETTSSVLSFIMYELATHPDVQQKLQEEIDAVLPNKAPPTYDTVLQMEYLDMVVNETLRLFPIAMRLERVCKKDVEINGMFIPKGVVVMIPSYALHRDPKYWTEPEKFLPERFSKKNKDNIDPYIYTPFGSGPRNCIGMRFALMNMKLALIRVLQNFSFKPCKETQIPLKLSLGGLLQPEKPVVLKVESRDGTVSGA
Sequence of UniProt O94956 (whole entry, looked up): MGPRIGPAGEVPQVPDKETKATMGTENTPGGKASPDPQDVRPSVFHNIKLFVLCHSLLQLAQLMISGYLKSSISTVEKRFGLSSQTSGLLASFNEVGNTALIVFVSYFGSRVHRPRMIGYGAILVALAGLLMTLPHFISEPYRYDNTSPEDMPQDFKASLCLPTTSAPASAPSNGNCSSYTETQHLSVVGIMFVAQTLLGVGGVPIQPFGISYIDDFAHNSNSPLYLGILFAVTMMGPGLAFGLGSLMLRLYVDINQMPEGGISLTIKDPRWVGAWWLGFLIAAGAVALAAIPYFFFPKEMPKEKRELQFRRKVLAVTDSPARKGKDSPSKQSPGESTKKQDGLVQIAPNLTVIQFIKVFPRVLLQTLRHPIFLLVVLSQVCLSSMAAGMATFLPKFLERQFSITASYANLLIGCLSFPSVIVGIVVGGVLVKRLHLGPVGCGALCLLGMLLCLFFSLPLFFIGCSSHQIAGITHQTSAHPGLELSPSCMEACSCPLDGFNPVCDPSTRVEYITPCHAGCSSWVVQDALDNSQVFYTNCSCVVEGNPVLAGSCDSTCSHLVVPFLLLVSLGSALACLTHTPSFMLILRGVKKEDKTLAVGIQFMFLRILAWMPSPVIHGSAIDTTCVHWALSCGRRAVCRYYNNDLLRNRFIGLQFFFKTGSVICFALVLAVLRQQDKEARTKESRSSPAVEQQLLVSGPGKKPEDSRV
Sequence of UniProt P00760 (whole entry, looked up): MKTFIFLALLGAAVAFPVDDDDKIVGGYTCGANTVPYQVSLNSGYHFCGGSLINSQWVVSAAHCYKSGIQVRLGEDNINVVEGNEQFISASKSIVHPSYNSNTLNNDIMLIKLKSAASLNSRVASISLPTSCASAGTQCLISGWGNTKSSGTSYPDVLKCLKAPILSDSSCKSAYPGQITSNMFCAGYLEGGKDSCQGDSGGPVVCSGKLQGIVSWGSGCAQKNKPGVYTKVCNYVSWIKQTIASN
Sequence of UniProt O95342 (whole entry, looked up): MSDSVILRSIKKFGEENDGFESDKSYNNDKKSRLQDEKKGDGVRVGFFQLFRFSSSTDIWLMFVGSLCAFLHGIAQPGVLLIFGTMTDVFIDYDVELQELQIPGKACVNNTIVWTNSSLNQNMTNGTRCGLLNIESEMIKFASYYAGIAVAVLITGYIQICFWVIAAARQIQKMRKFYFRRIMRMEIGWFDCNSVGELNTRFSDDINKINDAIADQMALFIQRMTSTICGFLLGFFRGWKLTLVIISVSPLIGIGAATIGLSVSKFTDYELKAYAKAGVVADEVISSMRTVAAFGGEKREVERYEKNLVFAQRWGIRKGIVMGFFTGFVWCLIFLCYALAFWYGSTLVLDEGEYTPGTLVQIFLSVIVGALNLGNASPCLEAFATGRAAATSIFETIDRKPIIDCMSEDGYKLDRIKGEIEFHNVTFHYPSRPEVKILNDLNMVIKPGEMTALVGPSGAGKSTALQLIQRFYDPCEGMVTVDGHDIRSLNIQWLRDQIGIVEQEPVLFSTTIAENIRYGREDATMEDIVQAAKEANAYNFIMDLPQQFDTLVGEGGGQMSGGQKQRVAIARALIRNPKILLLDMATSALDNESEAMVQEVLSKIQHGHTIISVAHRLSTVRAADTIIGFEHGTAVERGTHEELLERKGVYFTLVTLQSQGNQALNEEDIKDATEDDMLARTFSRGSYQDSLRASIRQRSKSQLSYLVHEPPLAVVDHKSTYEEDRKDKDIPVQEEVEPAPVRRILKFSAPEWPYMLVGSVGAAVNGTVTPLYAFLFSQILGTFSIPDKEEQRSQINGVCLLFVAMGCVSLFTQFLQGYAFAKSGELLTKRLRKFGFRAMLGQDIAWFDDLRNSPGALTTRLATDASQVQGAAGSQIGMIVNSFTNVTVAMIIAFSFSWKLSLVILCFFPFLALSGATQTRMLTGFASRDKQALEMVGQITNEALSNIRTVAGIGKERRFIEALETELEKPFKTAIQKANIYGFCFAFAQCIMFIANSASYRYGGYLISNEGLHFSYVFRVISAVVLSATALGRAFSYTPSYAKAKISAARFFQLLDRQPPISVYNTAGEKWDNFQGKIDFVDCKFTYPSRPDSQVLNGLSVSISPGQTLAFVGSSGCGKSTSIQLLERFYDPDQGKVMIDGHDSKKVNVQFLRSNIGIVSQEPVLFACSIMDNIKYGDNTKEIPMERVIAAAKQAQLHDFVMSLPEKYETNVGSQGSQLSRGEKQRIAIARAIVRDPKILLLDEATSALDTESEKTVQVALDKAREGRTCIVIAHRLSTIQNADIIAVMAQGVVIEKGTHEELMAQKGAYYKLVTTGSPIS

`COC(=O)C1C(OC(c2ccc(Cl)cc2)c2ccc(Cl)cc2)CC2CCC1N2C` (single isomer, unassigned) has a Ki of 0.335 µM (KCNH2; ligand displacement, radioligand).
The remaining compound of `O=C(O)CC[C@H](NC(=O)CNC(=O)[C@@H](Cc1ccccc1)NC(=O)[C@@H](Cc1ccccc1)NC(=O)Cc1ccc2ccccc2c1)C(=O)N[C@@H](Cc1ccc(OP(=O)(O)O)cc1)C(=O)O` is reported as about 70% (proteinase K; proteolytic stability; 200 µM, 32 h, added: proteinase K 3 U/mL).
`NCCCC[C@@H]1NC(=O)[C@@H](N)Cc2cccc(c2)C[C@@H](C(=O)O)NC(=O)CNC1=O`: “remaining intact peptide” at most 95% (Serine protease 1 (PRSS1, Bos taurus, UniProt P00760); proteolytic degradation; 50 µM, 5 h, pH 7.4, 25 °C, added: 0.1 mg/mL PRSS1).
The IC50 of `CCN(CC)CCOc1ccc(-c2nnn(Cc3ccc(OC)cc3)c2N)cc1` is reported as 15.7 µM (KCNH2; ion current, inhibitor, patch clamp).
`CNC(=O)CC[C@@H](NC(=O)[C@@H](Cc1ccc(OP(=O)(O)O)cc1)NC(=O)[C@@H](Cc1ccccc1)NC(=O)[C@@H](Cc1ccccc1)NC(=O)Cc1ccc2ccccc2c1)C(=O)NC` gave a dephosphorylated fraction of 30% (alkaline phosphatase; substrate; HS5; 200 µM, 24 h).
With `C=C(C)[C@@H]1CCC(CO)=C[C@H]1c1c(O)cc(CCCCC)cc1O` the half-life was 16.5 h (CYP3A4/CYP2C19; human; 750 mg single dose, alone).
`Cc1ccc2c(n1)c(-c1cccc(S(C)(=O)=O)c1)c(C)n2C/C(F)=C/CN` — result for “Cmax over IC50”: over 10 (LOXL2 (human); healthy male subjects, plasma; oral, 100 mg single dose, unit not given; reference: Cmax over LOXL2 IC50).
For `CC[C@@H]1CN2CCc3c([nH]c4cccc(OC)c34)[C@@H]2C[C@@H]1/C(=C\OC)C(=O)OC`, the inhibition was 40% (UDP-glucuronosyltransferase, rat; 4-MU glucuronidation, inhibitor; rat liver microsomes; 100 µM, 30 min, pH 7.4, added: 4-methylumbelliferone 100 µM).
`C[C@@H]1CCCN1CCc1cc2cc(C(=O)c3ccc([18F])cc3)ccc2o1` — result for “brain radioactivity concentration”: about 2.3 SUV (Histamine H3 receptor (Hrh3, Mus musculus, UniProt P58406); PET; mouse, brain; dose not given, 90 min, baseline).
With `CCCCCc1cc(O)c2c(c1)OC(C)(C)C1CCC(C(=O)OC3OC(C(=O)O)C(O)C(O)C3O)=CC21` (stereo not shown) the IC50 shift was 1.4 ± 0.16 (CYP2B6; HEK cell microsomes; unit not given; reference: without NADPH over with NADPH).
Under “activity vs control”, `C=CC(=O)Nc1cc(Nc2nccc(-c3cn(C)c4ccccc34)n2)c(OCC(F)(F)F)nc1N(C)CCN(C)C` is recorded as 77.6% (Cytochrome P450 3A4 (CYP3A4, Homo sapiens, UniProt P08684); enzyme activity, inhibitor; human, liver microsomes; 0.33 µM, midazolam probe).
The half-life of `C=C(C)[C@@H]1CCC(C(=O)O)=C[C@H]1c1c(O)cc(CCCCC)cc1O` is reported as 26.8 h (CYP3A4/CYP2C19; human; 750 mg single dose, alone).
`C[C@@H](O)[C@H](NC(=O)[C@@H]1CCCN1C(=O)CNC(=O)[C@@H]1CC(=O)NCC(=O)N[C@H]2Cc3cn(c4ccccc34)-c3cc(ccc3O)C[C@H](NC2=O)C(=O)NCC(=O)N[C@@H](CO)C(=O)N[C@@H](CCC(N)=O)C(=O)N[C@@H](Cc2c[nH]c3ccccc23)C(=O)N1)C(=O)NCC(=O)N[C@@H](CCC(N)=O)C(=O)N[C@@H](CCCNC(=N)N)C(=O)N[C@@H](CC(=O)O)C(=O)O`: proteolytic stability “no effect” (Carboxypeptidase Y (Saccharomyces cerevisiae, UniProt P00729); HPLC-MS; 4 h, pH 6.75, 25 °C).
`CC(C)(O)c1ccccc1CC[C@H](c1cccc(/C=C/c2ccc3ccc(Cl)cc3n2)c1)[S+]([O-])CC1(CC(=O)O)CC1` (stereo partly shown) gave an inhibition of under 0% (CYP2D6; inhibitor; human liver microsomes; 2 µM, pH 7.4, added: dextromethorphan).
`C/C=C/C[C@@H](C)[C@@H](O)[C@H]1C(=O)N[C@@H](CC)C(=O)N(C)C(Cc2ccc(C(=O)O)cc2)C(=O)N(C)[C@@H](CC(C)C)C(=O)N[C@@H](C(C)C)C(=O)N(C)[C@@H](CC(C)C)C(=O)N[C@@H](C)C(=O)N[C@H](C)C(=O)N(C)[C@@H](CC(C)C)C(=O)N(C)[C@@H](CC(C)C)C(=O)N(C)[C@@H](C(C)C)C(=O)N1C` (stereo partly shown) has an inhibition of -3% (calcineurin; phosphatase activity, inhibitor, refers to: phosphate release from RII phosphopeptide; 720 nM, added: rat cyclophilin A complex).
`CCCS(=O)(=O)c1ccc2[nH]c(NC(=O)OC)nc2c1` has an inhibition of under 0% (CYP2D6; inhibitor; human liver microsomes; 10 µM, pH 7.4, added: dextromethorphan).
`[64Cu+2].c1ccc(CNCc2ccc(CN3CCCNCCNCCCNCC3)cc2)nc1` gave a tissue uptake of 4.36 ± 0.72 %ID/g (CXCR4; NOD/SCID mouse, U87 and U87-stb-CXCR4 xenografts, bladder; iv, 90 min, no blocking dose, ex vivo).
Under inhibition, `CSc1nc2[nH]nc([N+](=O)[O-])c(=O)n2n1` is recorded as “no inhibition” (SLCO1B1; transport activity, refers to: OATP1B1; 100 µM).
`CCCCCC1=C(NCC)C(=O)C(C/C=C(\C)CCC=C(C)C)=C(O)C1=O` has an inhibition of under 50% (Bile salt export pump (ABCB11, Homo sapiens, UniProt O95342); transport, inhibitor; up to 22.5 µM).
The inhibition of `CNC(=O)Oc1cc(C)c(S(C)(=O)=O)c(C)c1` is reported as under 0% (CYP2D6; inhibitor; human liver microsomes; 2 µM, pH 7.4, added: dextromethorphan).
`C[C@]12CC[C@H](O)CC1CCC1C2[C@H](O)C(=O)[C@]2(C)[C@@H](c3ccc(=O)oc3)CC[C@]12O` (stereo partly shown) gave a CLint of 15.7 µL/min/mg (mixed recombinant human SULT isoforms; sulfation, substrate; pH 7.4).
`Cc1ccc2nc(C)c(C(=O)NCc3ccc(C(F)(F)F)cc3)n2c1` has an IC50 of over 20 µM (CYP2B6; inhibitor).
`CN1C(=O)[C@@H](Cc2ccc(O)cc2)NC(=O)CNC(=O)[C@H](Cc2ccc3ccccc3c2)NC(=O)[C@H](CCCNC(=N)N)NC(=O)[C@H]1CCCNC(=O)c1ccc(CNC(=O)CN2CCN(CC(=O)O)CCN(CC(=O)O)CCN(CC(=O)O)CC2)cc1` [gallium-68 labelled] gave an SUVmax of 16.9 (C-X-C chemokine receptor type 4 (CXCR4, Homo sapiens, UniProt P61073); PET; human, lymphoma lesion).
`CC(CCC(=O)NCC(=O)O)C1CCC2C3C(O)CC4CC(OC5OC(C(=O)O)C(O)C(O)C5O)CCC4(C)C3CCC12C` (stereo not shown) has an uptake ratio of 86 (SLCO1B1; substrate; transfected HEK293 cells; 1 µM, 2 min; reference: wild-type HEK293 cells).
The inhibition of `O=C1Cc2cc(CCN3CCN(C4=NS(=O)(=O)c5ccccc54)CC3)c(Cl)cc2N1` is reported as under 0% (CYP2D6; inhibitor; human liver microsomes; 2 µM, pH 7.4, added: dextromethorphan).
For `CC[C@H](C)[C@H](NC(=O)[C@H](CC(N)=O)NC(=O)[C@H](Cc1ccccc1)NC(=O)CNC(=O)[C@H](CC(C)C)NC(=O)[C@H](Cc1ccccc1)NC(=O)[C@H](Cc1ccccc1)NC(=O)Cc1ccc2ccccc2c1)C(=O)O`, the remaining compound was 70.7 ± 2.4% (proteinase K; substrate; hydrogel nanofibrils; 622 µM, 24 h, pH 6.4, 37 °C, added: proteinase K 3.2 U/mL).
The inhibition of `CC(C)(O)c1ccccc1CC[C@H](c1cccc(/C=C/c2ccc3ccc(Cl)cc3n2)c1)S(=O)(=O)CC1(CC(=O)O)CC1` is reported as under 0% (CYP2D6; inhibitor; human liver microsomes; 10 µM, pH 7.4, added: dextromethorphan).
`CC(CCC(=O)NCC(=O)O)C1CCC2C3CCC4CC(OC5OC(C(=O)O)C(O)C(O)C5O)CCC4(C)C3CC(O)C12C` (stereo not shown) has an uptake ratio of 2 ± 0.5 (Solute carrier organic anion transporter family member 2B1 (SLCO2B1, Homo sapiens, UniProt O94956); substrate; transfected HEK293 cells; 1 µM, 2 min; reference: wild-type HEK293 cells).

Excerpt of the above:
`NCCCC[C@@H]1NC(=O)[C@@H](N)Cc2cccc(c2)C[C@@H](C(=O)O)NC(=O)CNC1=O`: “remaining intact peptide” at most 95% (Serine protease 1 (PRSS1, Bos taurus, UniProt P00760); proteolytic degradation; 50 µM, 5 h, pH 7.4, 25 °C, added: 0.1 mg/mL PRSS1).
`Cc1ccc2c(n1)c(-c1cccc(S(C)(=O)=O)c1)c(C)n2C/C(F)=C/CN` — result for “Cmax over IC50”: over 10 (LOXL2 (human); healthy male subjects, plasma; oral, 100 mg single dose, unit not given; reference: Cmax over LOXL2 IC50).
`C[C@@H](O)[C@H](NC(=O)[C@@H]1CCCN1C(=O)CNC(=O)[C@@H]1CC(=O)NCC(=O)N[C@H]2Cc3cn(c4ccccc34)-c3cc(ccc3O)C[C@H](NC2=O)C(=O)NCC(=O)N[C@@H](CO)C(=O)N[C@@H](CCC(N)=O)C(=O)N[C@@H](Cc2c[nH]c3ccccc23)C(=O)N1)C(=O)NCC(=O)N[C@@H](CCC(N)=O)C(=O)N[C@@H](CCCNC(=N)N)C(=O)N[C@@H](CC(=O)O)C(=O)O`: proteolytic stability “no effect” (Carboxypeptidase Y (Saccharomyces cerevisiae, UniProt P00729); HPLC-MS; 4 h, pH 6.75, 25 °C).
